Measurements collected from several papers.
Compare with care: the assays were run in different laboratories.
PRKAA1: 5'-AMP-activated protein kinase catalytic subunit alpha-1 (PRKAA1, Homo sapiens, UniProt Q13131)
Sequence of UniProt Q13131 (whole entry, looked up): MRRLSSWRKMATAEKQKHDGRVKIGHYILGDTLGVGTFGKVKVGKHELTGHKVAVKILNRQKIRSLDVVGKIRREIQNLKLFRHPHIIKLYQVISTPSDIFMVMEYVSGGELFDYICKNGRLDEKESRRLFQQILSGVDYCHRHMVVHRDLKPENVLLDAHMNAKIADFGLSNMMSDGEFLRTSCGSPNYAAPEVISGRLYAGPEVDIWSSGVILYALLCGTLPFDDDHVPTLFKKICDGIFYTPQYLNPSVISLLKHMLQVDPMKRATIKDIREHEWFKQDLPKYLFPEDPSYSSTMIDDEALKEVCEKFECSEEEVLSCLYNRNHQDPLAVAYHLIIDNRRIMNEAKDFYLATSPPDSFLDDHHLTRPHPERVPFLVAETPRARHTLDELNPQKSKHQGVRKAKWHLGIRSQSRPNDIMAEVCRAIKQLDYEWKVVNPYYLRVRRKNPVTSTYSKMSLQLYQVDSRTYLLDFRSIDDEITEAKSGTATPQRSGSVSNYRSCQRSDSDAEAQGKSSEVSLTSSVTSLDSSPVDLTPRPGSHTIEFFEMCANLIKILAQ
PRKAA1 with beta1, gamma1: 5'-AMP-activated protein kinase catalytic subunit alpha-1, with beta1, gamma1 (PRKAA1, Homo sapiens, UniProt Q13131)

| Structure (SMILES) | target | assay | system | conditions | how to read | measurement | value |
| --- | --- | --- | --- | --- | --- | --- | --- |
| CCN(CC)c1ccc(C2=NNC(=O)CC2C)cc1[N+](=O)[O-] (stereo not shown) | PRKAA1 | kinase activity, inhibitor |  | 10 µM |  | remaining activity | 110% |
| CC(C)c1ccc(NC(=O)c2cccs2)c(-c2nc3ccccc3[nH]c2=O)c1 | PRKAA1 | kinase activity |  | 1 µM |  | remaining activity | 113% |
| Cc1ccc(NC(=O)c2ccc(C)c(C(F)(F)F)c2)cc1C#Cc1nn(C2CCC(O)CC2)c2ncnc(N)c12 (stereo not shown) | PRKAA1 | enzyme activity |  | 10 µM, together with: ATP 10 µM |  | remaining activity | 109% |
| CN(C)C1CCN(CC#Cc2nn(C3CCCC3)c3nc(NCc4ccccc4)ncc23)C1 (stereo not shown) | PRKAA1 with beta1, gamma1 | enzyme activity, inhibitor, Z'-LYTE |  | 1000 nM |  | inhibition | 16% |
| COc1cc2ncnc(Nc3ccc(Oc4ccccc4)cc3C)c2cc1OC | PRKAA1 with beta1, gamma1 | kinase activity, inhibitor |  | 1 µM |  | inhibition | -1% |
| COc1cccc(CN(CCN(CCN(C)C)Cc2ccccc2)Cc2ccccc2)c1 | PRKAA1 | kinase activity, inhibitor |  | concentration not given |  | inhibition | no inhibition |
| COc1cc(Cl)c(C(=O)N[C@@H](CN[C@H]2CC[C@@H](N)CC2)Cc2ccc(C#N)cc2)cc1-c1ccc(CN[C@H](C)c2ccc(C)cc2)o1 | PRKAA1 | enzyme activity, KinaseProfiler panel |  | 1 µM |  | remaining activity | 94% |
| Cc1cc(NC(=O)c2cccc3cc(-c4cccc5[nH]nc(N)c45)ccc23)ccc1F | PRKAA1 | enzyme activity, kinase profiling panel |  | 0.1 µM |  | remaining activity | 103% |
| CC[C@@H]1[C@H](F)C(=O)N[C@@H]1COc1nccc2cc(C(N)=O)c(OC)cc12 | PRKAA1 | ATP probe binding, KiNativ profiling, item: ATP loop probe site | THP-1 cell lysate | 0.04 mM |  | inhibition | 4.2% |
| COc1ccc2oc(-c3ccc4nc(N)oc4c3)c/c(=N\c3ccccc3NC(=O)CCN)c2c1 | PRKAA1 | kinase activity |  | 1 µM | reference: untreated control | remaining activity | 106% |

Repeated from above:
| Structure (SMILES) | target | assay | system | conditions | how to read | measurement | value |
| --- | --- | --- | --- | --- | --- | --- | --- |
| CN(C)C1CCN(CC#Cc2nn(C3CCCC3)c3nc(NCc4ccccc4)ncc23)C1 (stereo not shown) | PRKAA1 with beta1, gamma1 | enzyme activity, inhibitor, Z'-LYTE |  | 1000 nM |  | inhibition | 16% |
